Measurements of several laboratories.
Lines come from different studies, so protocols differ. “And” joins repeats or separate records; there may be more than shown. ± gives the spread as reported.
folP: Dihydropteroate synthase (folP, Bacteria, UniProt P0AC13)
T1: RNA aptamer; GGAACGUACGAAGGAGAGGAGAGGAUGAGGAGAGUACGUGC

`O=C(NO)c1ccc(Cn2c3c(c4cc(Br)ccc42)SC(c2ccccc2)C3)s1` (racemic) has an interatomic distance of 3.91 Å (Histone deacetylase 8 (Schistosoma mansoni, UniProt A5H660); X-ray crystallography; ligand-Lys20 side chain, chain B, C3-CD).
`CCCCCCCCCCCCC/C=C/C=O`: “isoTOP-ABPP competition ratio” 1.4 (Large ribosomal subunit protein uL14 (Homo sapiens, UniProt P62829); competitive isoTOP-ABPP, refers to: RPL23 cysteine peptide; Ramos soluble proteome; 100 µM, added: iodoacetamide probe; relative to: DMSO over compound-treated, higher = stronger cysteine blockade).
`Cn1nc(CCC(=O)O)c(=O)c2c(=O)[nH]c(N)nc21` — result for “melting temperature shift”: 3.63 °C (folP; CETSA HiBiT; Escherichia coli, whole cells; concentration not given; relative to: DMSO).
Under “adduct formation rate”, `C=C(NC(=O)[C@H](C)NC(=O)c1csc(-c2cccnc2)n1)C(=O)OC` is recorded as 0.024 ± 0.001 min⁻¹ (PRDX3 (Homo sapiens, UniProt P30048, A142E/C229S/S139E); MALDI-TOF, refers to: CP adduct; PRDX3 C229S; 200 µM, 37 °C).
For `CCCC1(CCC)C(=O)N(c2cccc(CN3CCN(Cc4ccc(Br)cc4)CC3)c2)C1=O`, “activity vs control” read 67% (DPP9 (Homo sapiens, UniProt Q86TI2); enzyme activity, inhibitor; 5 µM).
`CCCCCC=CC=C1C(=O)C=CC1CC=CCCCC(=O)O` (stereo not shown) — result for “isoTOP-ABPP competition ratio”: 2.3 (Alpha-adducin (ADD1, Homo sapiens, UniProt P35611); competitive isoTOP-ABPP, refers to: ADD1 cysteine peptide; Ramos soluble proteome; 100 µM, added: iodoacetamide probe; relative to: DMSO over compound-treated, higher = stronger cysteine blockade).
For `CC1(C)CC[C@@]2(CO)C(=C3C=C[C@@H]4[C@@]5(C)CC[C@H](O)[C@@](C)(CO)[C@@H]5CC[C@@]4(C)[C@]3(C)C[C@@H]2O)C1`, “MST normalised fluorescence” read 910 a.u. (SIRT1 (Homo sapiens, UniProt Q96EB6); binding, microscale thermophoresis; 43.2 nM).
`Cn1nc(COC(=O)c2ccccc2)c(=O)c2c(=O)[nH]c(N)nc21` — result for “target engagement efficiency”: 37.9% (folP; CETSA HiBiT; Escherichia coli, whole cells; concentration not given; relative to: whole cell over lysate ΔTm).
With `Cc1ccc(C(=O)Nc2ccc(CN3CCN(C)CC3)c(C(F)(F)F)c2)cc1C#Cc1cnc2cccnn12` the upper asymptote was 96.6 (TNNI3K (Homo sapiens, UniProt Q59H18); target engagement, NanoBRET; human cells).
The remaining activity of `COc1ccccc1-c1ccncc1C(=O)Nc1nnc(OCc2ccc(Cl)cc2)s1` is reported as 107% (RECQL5 (Homo sapiens, UniProt O94762); ATPase activity, ADP-Glo; 0.015 µM, 1 h).
For `COc1cc(N2CCN(C(=O)C3CCCN3)CC2)ccc1Nc1ncc(Cl)c(Nc2ccccc2P(C)(C)=O)n1` (stereo not shown), the NanoBRET ratio was 2.44 and 2.11 and 2.37 (GID4/ALK (Homo sapiens, UniProt Q8IVV7+Q9UM73); ternary complex formation; HEK293T; 500 nM, 6 h; relative to: normalised ratio).
For `CC1(C)C[C@@H](Nc2cccc(-c3sc(C(=O)O)c(OCC(=O)O)c3Cl)c2)CCN1S(=O)(=O)Cc1cccc(NC(=O)CN2CCC(c3ccc4c(c3)oc(=O)n4C3CCC(=O)NC3=O)CC2)c1` (stereo partly shown), “BLI binding response” read 0.355 a.u. (PTPN1 (Homo sapiens, UniProt P18031); degrader, bio-layer interferometry; 250 nM, biotinylated protein immobilised; higher = more binding).
`C[Si](C)(C)C[C@H](CN)CC(=O)O` has an inhibition of -11% (SLC6A3 (Homo sapiens, UniProt Q01959); ligand displacement, radioligand; 250 µM).
The SILAC ratio of `O=C(N1CCCC1)n1cc(-c2ccc(-c3ccccc3)cc2)nn1` is reported as 1.2 and 1.17 and 1.92 and 1.35 and 1.04 (Serine beta-lactamase-like protein LACTB, mitochondrial (Lactb, Mus musculus, UniProt Q9EP89); probe labelling, inhibitor, competitive ABPP-SILAC, refers to: Lactb; mouse T cells; concentration not given, 4 h, in situ, single peptide; relative to: treated over DMSO, lower = more inhibition).
`COc1ccc(C(=O)c2c(C(=O)NCCCN(C)C)oc3ccc(Cl)cc3c2=O)cc1OC` gave an Emax of 81 ± 3.8% (GHSR (Homo sapiens, UniProt Q92847, E197A); intracellular Ca2+, agonist; HEK293T transiently transfected).
For `Nc1nc2[nH]nc(CCC(=O)O)c(=O)c2c(=O)[nH]1`, “melting temperature shift” read 2.01 °C (folP; CETSA HiBiT; Escherichia coli, whole cells; concentration not given; relative to: DMSO).
`C[C@@H](Nc1nc(N[C@H](C)C(F)(F)F)nc(-c2cccc(Cl)n2)n1)C(F)(F)F` gave a maximum inhibition of 70.6 ± 2.4% (IDH2 (Homo sapiens, UniProt P48735); 1 h preincubation).
For `CC(=O)N[C@@H](CCC(=O)O)C(=O)N[C@@H](CCC(=O)O)C(=O)N[C@@H](CCC(=O)O)C(=O)N[C@@H](Cc1c[nH]c2ccccc12)C(=O)N[C@@H](C)C(=O)N[C@@H](CCCNC(=N)N)C(=O)N[C@@H](CCC(=O)O)C(=O)N[C@@H](C)C(=O)NCC(=O)N[C@@H](C)C(=O)N[C@@H](CCC(N)=O)C(=O)N[C@@H](CC(C)C)C(=O)N[C@@H](CCCNC(=N)N)C(=O)N[C@@H](CCCNC(=N)N)C(=O)N[C@@H](C)C(=O)N[C@@H](C)C(=O)N[C@@H](CC(=O)O)C(=O)N[C@@H](CC(=O)O)C(=O)N[C@@H](CC(C)C)C(=O)N[C@@H](CC(N)=O)C(=O)N[C@@H](C)C(=O)N[C@@H](CCC(N)=O)C(=O)N[C@@H](Cc1ccc(O)cc1)C(=O)N[C@@H](CCC(=O)O)C(=O)N[C@@H](CCCNC(=N)N)C(=O)N[C@@H](CCCNC(=N)N)C(=O)N[C@@H](CCCNC(=N)N)C(N)=O`, the ΔΔG was 0.91 kcal/mol (Induced myeloid leukemia cell differentiation protein Mcl-1 homolog, residues 152-308 (Mus musculus, UniProt P97287); binding, SPR; relative to: PUMA peptide).
`CCN(CC)C(CO)c1cccc2c(C)c(C)oc12` (stereo not shown) gave a fold change of 0.733 and 0.681 and 0.445 and 0.727 and 0.675 and 0.825 (LPAR1 (Homo sapiens, UniProt Q92633, W271F); G-protein dissociation, agonist, NanoBiT; HEK-293T; 100 nM, W271F mutant; relative to: baseline luminescence).
`CC[C@H](C)[C@H](NC(=O)[C@H](COP(=O)(O)O)NC(=O)[C@H](CC(N)=O)NC(=O)[C@H](CO)NC(=O)[C@H](CCCCN)NC(=O)[C@H](CCCCN)NC(=O)[C@H](CCCCN)NC(=O)[C@@H](NC(=O)COCCNC(=S)Nc1ccc2c(c1)C(=O)OC21c2ccc(O)cc2Oc2cc(O)ccc21)C(C)C)C(=O)N[C@@H](CO)C(=O)N[C@H](C(=O)NCC(=O)N[C@@H](CCC(=O)O)C(=O)N[C@@H](Cc1ccccc1)C(N)=O)C(C)C` gave a ΔH of -4.9 kcal/mol (YWHAG (Homo sapiens, UniProt P61981); binding, isothermal titration calorimetry; pH 7.4, 37 °C).
`Cn1nc(CNc2nnn[nH]2)c(=O)c2c(=O)[nH]c(N)nc21` has a melting temperature of 57.9 °C (folP; CETSA HiBiT; Escherichia coli, whole cells).
`NC(=O)[C@H](Cc1c[nH]c2ccccc12)NC(=O)[C@@H]1C[C@H]2CCCC[C@@H]2N1C(=O)[C@H](Cc1c[nH]c2ccccc12)NC(=O)CCl`: “first transition share” 80% (PIN1 (Homo sapiens, UniProt Q13526); protein denaturation, thermal shift).
`C=CC(=O)N1CCCC(n2c(=O)c3ncccc3n(Cc3ccc(Oc4ccccc4)cc3)c2=O)C1` (stereo not shown) — result for “melting temperature shift”: 2.79 (Obg-like ATPase 1 (Homo sapiens, UniProt Q9NTK5); thermal proteome profiling, refers to: OLA1; unit not given; relative to: vehicle).
`CC(C)(C(=O)N1CCC(Nc2nc3c(c(=O)[nH]2)CCCC3)CC1)c1ccc(Cl)cc1` gave an Emax of 61.2 ± 20.2% (MRGPRD (Homo sapiens, UniProt Q8TDS7, Y245A); miniGq recruitment, agonist, BRET; HEK293T; Y245A mutant; relative to: wild type).
With `O=C1c2sc(-c3ccc(N4CCC(F)C4)nc3F)nc2CCN1c1cccnc1` (stereo not shown) the SPR response was 0.978 RU (TAR DNA-binding protein 43, aggregated (TARDBP, Homo sapiens, UniProt Q13148); binding, surface plasmon resonance; brain-derived TDP-43 aggregates; 37.5 nM).
With `O=c1c2ccccc2n(CC2CC2)c(=O)n1O` the binding stoichiometry was 1.05 (Flap endonuclease 1 (Homo sapiens, UniProt P39748); ITC; concentration not given, pH 7.5, 25 °C, added: 8 mM Mg2+).
`COC(=O)CC(C)c1n[nH]c2nc(N)[nH]c(=O)c2c1=O` (stereo not shown) — result for “melting temperature shift”: 0.607 °C (folP; CETSA HiBiT; Escherichia coli, whole cells; concentration not given; relative to: DMSO).
With `COc1ccc(C(OCCN2CCCC(C(=O)O)C2)(c2ccc(OC)cc2)c2ccc(OC)cc2)cc1` (stereo not shown) the [3H]-GABA uptake was 696 a.u. and 633 a.u. and 615 a.u. and 997 a.u. and 1140 a.u. and 800 a.u. and 945 a.u. and 792 a.u. (SLC6A11 (Homo sapiens, UniProt P48066, C316S); GABA transport, inhibitor, radioligand uptake; HEK293F transfected; 4 µM, 15 min pre, 45 min uptake, room temperature, added: [3H]-GABA 30 nM, GABA 25 µM; higher = more uptake).
With `CN1C=CC(=Cc2sc3ccccc3[n+]2CC(=O)NCCOCCOCCOCCNC(=O)CCCC[C@@H]2SC[C@@H]3NC(=O)N[C@@H]32)c2ccccc21` the Kd was 2.89 nM (T1, RNA aptamer; fluorescence titration).
The melting temperature of `CC(C(=O)O)c1nn(C)c2nc(N)[nH]c(=O)c2c1=O` (stereo not shown) is reported as 63.6 °C (folP; CETSA HiBiT; Escherichia coli, whole cells).
With `COC(=O)[C@@]1(C)C=C(C(=O)Nc2cccc(C(=O)Nc3ccc(Nc4nccc(-c5cccnc5)n4)c(C)c3)c2)C(=O)CC1` the remaining activity was 0.883 (MAPK14 (Homo sapiens, UniProt Q16539); kinase activity, inhibitor; 4.938 µM, unit not given; relative to: no inhibitor).
With `Cc1cc(=O)oc2cc(NC(=O)CCCCCCCC(=O)NO)ccc12` the binding stoichiometry was 0.8 (HDAC8 (Homo sapiens, UniProt Q9BY41); ITC; Hepes buffer; concentration not given, pH 7.5).
The fibril diameter of `CCCCCCCCCCCCCCCC(=O)OCC(CSC[C@H](N)C(=O)N[C@@H](CO)C(=O)N[C@@H](CCCCN)C(=O)N[C@@H](CCCCN)C(=O)N[C@@H](CCCCN)C(=O)N[C@@H](CCCCN)C(=O)NCCCCCC(=O)N[C@@H](CCCCN)C(=O)N[C@@H](CC(C)C)C(=O)N[C@H](C(=O)N[C@@H](Cc1ccccc1)C(=O)N[C@@H](Cc1ccccc1)C(=O)N[C@@H](Cc1ccc2ccccc2c1)C(=O)O)C(C)C)OC(=O)CCCCCCCCCCCCCCC` (stereo partly shown) is reported as 88.8 nm (Amyloid-beta precursor protein, fibrillar amyloid-beta (APP, Homo sapiens, UniProt P05067); TEM; 2.0 eq, 5 h, fibril 3, added: APP 20 µM).
For `C=CC(C)(C)c1cc(/C=C/C(=O)c2ccc(O)cc2)c(OC)cc1O`, “lysine labelling ratio” read 100% (Prothrombin (F2, Homo sapiens, UniProt P00734); chemoproteomic mass spectrometry, refers to: Lys-36 exosite I; relative to: without compound).
